Measured values collected from several papers.
Lines come from different studies, so protocols differ. Several values in a cell are separate wells, animals, samples, runs or records.
IDE: Insulin-degrading enzyme (IDE, Homo sapiens, UniProt P14735)

| Compound | target or system | test | setting | scale | quantity | result |
| --- | --- | --- | --- | --- | --- | --- |
| CC/C(=N\NC(=O)NCc1cccc(O)c1)c1ccc(O)c(C)c1O | SK-OV-3 | gene expression, microarray, item: TGFB2 | 10 µM, 24 h | baseline: DMSO | log ratio | 3.83 |
| C=CC(=O)N1CCC(COCC(=O)N2CCN(c3nc(-c4cnc(N)nc4C(F)F)nc(N4CCOC[C@@H]4C)n3)CC2)CC1 | A2058 | resazurin growth rate inhibition | 72 h |  | GR50 | 2690 nM |
| Cc1ccccc1-c1ccc([C@H]2[C@H](CO)N3C(=O)CN(C(=O)Nc4cccc(F)c4)C[C@@H]23)cc1 | IDE | enzyme activity, inhibitor, fluorogenic kinetic | together with: Mca-RPPGFSAFK(Dnp)-OH substrate |  | EC50 | 4 µM |
| Cc1ccc2c(c1)C(=O)[C@]1(O)CCN(c3ccc4nc(C)ccc4c3)C1=N2.Cl | human GBM lines |  | 5 µM, 48 h |  | multinucleated cells | 12 to 25% |
| CCC/N=C1\S/C(=C\c2ccc(OC[C@H](O)CO)c(Cl)c2)C(=O)N1c1ccccc1C | human primary astrocytes | single-cell RNA-seq, item: TAGLN mRNA | concentration not given, 24 h, together with: cytokine stimulation | baseline: cytokine alone | log2 fold change | 0.634 |
| CC1(C(=O)Nc2nnc(S(N)(=O)=O)s2)CCC1 | Enterococcus faecium γ-carbonic anhydrase | CO2 hydration, inhibitor, stopped-flow kinetics |  |  | Ki | 0.348 µM |
| O=C(c1ccccn1)N1CC(=O)N2[C@@H](CO)[C@@H](c3ccc(C#Cc4ccccc4)cc3)[C@@H]2C1 | IDE | enzyme activity, inhibitor, fluorogenic kinetic | together with: Mca-RPPGFSAFK(Dnp)-OH substrate |  | EC50 | 5.2 µM |
| O=C(/C=C/C=C/C=C/C1CCCCC1)NC1=C[C@@](O)(/C=C/C=C/C=C/C(=O)NC2=C(O)CCC2=O)[C@@H]2O[C@@H]2C1=O | Huh-7 | cell growth, CellTiter-Glo | 78 h |  | GI50 | 14.5 µM |
| CCn1cc(-c2cc(Cn3ccoc3=N)cc3c2CCN([C@@H](C)c2cc(OC)ccn2)C3=O)c(C(F)(F)F)n1 | G-402 | cell growth, inhibitor | 120 h |  | EC50 | 0.0386 µM |
| C=Cc1c2[n-]c(c1C)/C=c1\[n-]/c(c(C)c1C=C)=C\c1[n-]c(c(CCC(=O)O)c1C)/C=c1\[n-]c(c(C)c1CCC(=O)O)=C2.[Sn+4] | SH-SY5Y | RNA-seq, item: TNS1 mRNA | 5 µM, 5 h | baseline: untreated cells | fold change | 1.85 |
| CCS(=O)(=O)Nc1ccc2c(c1)/C(=C(/Nc1ccc(CN3CCCCC3)cc1)c1ccccc1)C(=O)N2 | BT-12 | cell viability, MTT | 10 µM, 72 h |  | inhibition | 93.6% |
| Cn1cc(/C=C/C(=O)c2cccc(F)c2)cc1/C=C/C(=O)NO | HBL-1 |  | 0.1 µM, 120 h |  | viability | 123% |
| CC(Nc1nc(N2CCCC2)nc2ccccc12)c1ccccc1 (centres unmarked) | HeLa Kyoto | RelA nuclear import, high content imaging | 5.01 µM, 3 h, together with: 1 µM PMA, 60 min |  | cells with nuclear RelA | 81.2% and 75.4% |
| COc1cc([C@@H]2c3cc4c(cc3[C@@H](O[C@@H]3O[C@@H]5CO[C@@H](C)O[C@H]5[C@H](O)[C@H]3O)[C@H]3COC(=O)[C@H]23)OCO4)cc(OC)c1O | HBL-1 |  | 1 µM, 120 h |  | viability | 10.4% |
| Cn1cc(-c2ccc(-c3cncc(Cl)c3N3CCC4(CCNC4=O)CC3)cc2)cn1 | COLO 205 | microarray, item: CASC5 | concentration not given, 6 h, gene set AF15q14 | baseline: untreated cells | fold change in expression | -2.28 |
| O=C(Nc1c[nH]nc1-c1nc2ccc(CN3CCOCC3)cc2[nH]1)NC1CC1 | BT-12 | cell viability, MTT | 10 µM, 72 h |  | inhibition | 94.1% |
| CC(C)[C@H](C(=O)Nc1ccc(C(=O)NO)cc1)c1ccccc1 | HBL-1 |  | 0.5 µM, 120 h |  | viability | 7.47% |
| Cc1ccc(S(=O)(=O)/C=C/C#N)cc1 | HeLa expressing Ub(G76V)-GFP | Ub(G76V)-GFP degradation, cycloheximide chase | 12 µM |  | inhibition | 80% |
| Nc1nc(OCc2cc(Br)cs2)c2[nH]cnc2n1 | HBL-1 |  | 0.1 µM, 120 h |  | viability | 107% |
| O=C(C[C@@H](C(F)F)n1ccc(F)n1)N1CCC(O)(Cn2cnc3c(cnn3-c3ccc(F)cc3)c2=O)CC1 | CHP-212 resistant cells (pooled) | PI flow cytometry | 1 µM, 24 h |  | cells in G1 phase | 77.2% and 73.8% and 76% |
| NC(=O)c1cccnc1 | HBL-1 |  | 1 µM, 120 h |  | viability | 100% |
| C=CC(=O)N1CCCN(C(=O)c2cc(Sc3cnc(NC(=O)C4CC4)s3)c(C)cc2OC)C[C@H]1C | human CD4 T cells | flow cytometry | concentration not given, together with: anti-CD3/CD28 crosslinking |  | S6 phosphorylation | inhibited |
| C=C1C(=O)O[C@@H](CCC)[C@@H]1C(=O)O (racemic) | HBL-1 |  | 0.1 µM, 120 h |  | viability | 117% |
| CCCCc1oc2ccccc2c1C(=O)c1cc(I)c(OCCN(CC)CC)c(I)c1 | mouse embryonic stem cells | item: Meox1, Foxc2 peak expression | 4 µM |  | mRNA level | decreased |
| Cc1cc(=O)oc2cc(NC(=O)CCCCCCC(=O)NO)ccc12 | HBL-1 |  | 0.1 µM, 120 h |  | viability | 106% |
| CC(C)(C)c1nc2c3cc[nH]c(=O)c3c3cc(F)ccc3c2[nH]1 | HeLa expressing Ub(G76V)-GFP | Ub(G76V)-GFP degradation, inhibitor, cycloheximide chase | 12 µM |  | inhibition | 13% |

A few entries again:
| Compound | target or system | test | setting | scale | quantity | result |
| --- | --- | --- | --- | --- | --- | --- |
| Cc1ccc(S(=O)(=O)/C=C/C#N)cc1 | HeLa expressing Ub(G76V)-GFP | Ub(G76V)-GFP degradation, cycloheximide chase | 12 µM |  | inhibition | 80% |
| CC1(C(=O)Nc2nnc(S(N)(=O)=O)s2)CCC1 | Enterococcus faecium γ-carbonic anhydrase | CO2 hydration, inhibitor, stopped-flow kinetics |  |  | Ki | 0.348 µM |
